Experimental data pooled from the literature.
Numbered parts are unrelated; each lists some results of a single study. Positions count from the first letter of the parent shown.

Set 1 — method: RNA Bind-n-Seq; form: RNA; medium: in vitro; tested at: 365 nM; relative to: no-protein control; reading: higher = stronger binding
Target: RNA binding protein fox-1 homolog 2, RRM domain, GST-SBP tag (RBFOX2, Homo sapiens, UniProt O43251-10, residues 100-194)
Setting: natural RNA segment, single round, ends assumed
Construct (chain): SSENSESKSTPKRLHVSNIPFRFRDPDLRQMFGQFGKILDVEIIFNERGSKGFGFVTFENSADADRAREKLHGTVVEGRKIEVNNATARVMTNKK
| Oligonucleotide | RBNS enrichment (R) |
| --- | --- |
| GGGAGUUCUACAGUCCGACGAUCUCGGCCUAUAUCUGACCAUUAGGUCCCUCCCCUUCAGUAGGUCCUGGAGACAUAGGGGCUGCUACCAGGGGAGGAACACACCUGGGUGUGGGGCAGCUUCUGGCAUCUUCUGGAAUUCUCGGGUGCCAA | 0.258 |
| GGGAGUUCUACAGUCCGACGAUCGAGCCGGCCCCACUCUCUGGGUCACCUGACUUUGCUCCCGACGACUCGGCUCCCUGCCGAGGCUCAGCUCUUGGGCAAGUUGGGACUUGGACCUGGCCUGAAGACUGAUUUGGAAUUCUCGGGUGCCAA | 0.22 |
| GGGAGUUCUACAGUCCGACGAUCGAAUAUCAGUCCAAGCAAGCUGAUACGUGAGUGGCAGUGGAUAGGAUUUGCUUAAUGGCUGAUGUAAUAAGAUUGUACUUCCUAUACAGAGGCACCUUACUCUCUGGGGCUGGAAUUCUCGGGUGCCAA | 0.833 |
| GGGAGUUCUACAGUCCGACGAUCAACAUAUGUAUUUGUAAAAAUGGUUUCCUGUGUCAAGUAUUUGUGCAGUCAGAGCUGACUUGUAAACUAUUCUUGUAAUAGCUCAUUAUUUUGAAAGAUUUAUAUAUGAUUGGAAUUCUCGGGUGCCAA | 0.362 |
| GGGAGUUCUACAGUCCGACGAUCUCUGUCACUAUGCUCUCUUGCCUUCAGACAGACCAUUCUGAAUUCUCUAAAGGGAAAGGGCUUUUGCAUCUAAUCACAAUAGAGUUGAAAGAGAGGCCUUAGGAUUCUCCUGGAAUUCUCGGGUGCCAA | 0.267 |
| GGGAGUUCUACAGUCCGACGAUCCCUCCUGGCUUUCGUGGCCAUCUUUGUCCAUCUUAGGUGGGGACUUGAUCUUAUUUAAGGUCUCCAAAUAGCCCCCACCACACUUAGAACGUGUGUUUUCUUAGUGUUAGUGGAAUUCUCGGGUGCCAA | 0.255 |
| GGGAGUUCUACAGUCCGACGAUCAAAACCACCUGUAGGAUACUGCAUUAAGUCAGCAUCUCAGAAACAGUGGUGUGAGUAACUGAGUCAAAUUGUCAAGUACUUUGGAUAUACAUAGUGUCGAGCUUUAGAUUUGGAAUUCUCGGGUGCCAA | 0.451 |

Set 2 — method: DHFR PCA, deep sequencing; medium: yeast; together with: (+)-ABA 1.4 µM; relative to: wild-type fitted maximum; reading: higher = stronger binding
Target: ABI1, truncated, D143A, DHFR fusion (Arabidopsis thaliana)
Setting: methotrexate growth selection, single substitutions
Parent: PYL1, truncated, DHFR fusion (Arabidopsis thaliana); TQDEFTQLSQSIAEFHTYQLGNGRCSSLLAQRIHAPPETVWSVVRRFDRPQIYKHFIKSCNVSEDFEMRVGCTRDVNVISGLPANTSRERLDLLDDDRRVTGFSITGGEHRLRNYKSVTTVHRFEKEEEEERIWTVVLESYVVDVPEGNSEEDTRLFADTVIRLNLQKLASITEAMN
| Substitution | relative binding score |
| --- | --- |
| N149F | -19.2% |
| R155V | 35.2% |
| N61P | -1.23% |
| E127D | 71.7% |
| R113M | 51.9% |
| L166V | 10.9% |

Set 3 — target: CCNB3, cyclin fold, Cln2 fusion (human); method: yeast growth competition, sequencing; medium: yeast; setting: weak parent motif; relative to: not given; reading: higher = stronger binding
Parent: GMNC docking peptide (human); KNAKRNLSSEFAN; partner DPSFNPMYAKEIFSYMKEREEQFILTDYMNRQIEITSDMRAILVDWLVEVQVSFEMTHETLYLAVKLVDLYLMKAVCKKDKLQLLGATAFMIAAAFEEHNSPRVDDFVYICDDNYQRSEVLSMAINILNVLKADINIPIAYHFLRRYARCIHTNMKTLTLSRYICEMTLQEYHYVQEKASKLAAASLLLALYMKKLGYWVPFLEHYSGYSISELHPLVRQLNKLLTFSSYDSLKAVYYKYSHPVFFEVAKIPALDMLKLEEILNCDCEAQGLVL
| Substitution | normalised enrichment score |
| --- | --- |
| KNAKRNLHSEFAN [S8H] | 0.115 |
| KNSKRNLSSEFAN [A3S] | 0.311 |
| KNAKRNLSHEFAN [S9H] | 0.335 |
| KNAKRNSSSEFAN [L7S] | 0.321 |
| KNAKRNLSSEPAN [F11P] | -0.176 |
| KNACRNLSSEFAN [K4C] | 0.127 |
| KNAKRNLSSENAN [F11N] | -0.271 |
| KNYKRNLSSEFAN [A3Y] | -0.345 |
| KNASRNLSSEFAN [K4S] | 0.00642 |

Single results of other studies
| Substance | target | assay | test system | setting | scale | quantity | result |
| --- | --- | --- | --- | --- | --- | --- | --- |
| PhoQ, residues 284 288 289 292 302 303 ASSHFY | PhoP, residues 12 14 15 18 19 LHSVQ (Escherichia coli, UniProt P23836) | Sort-seq, item: YFP reporter | E. coli | PhoQ-PhoP variant library, together with: 10 µM Mg2+ | relative to: high Mg2+ state, higher = stronger signaling | fold induction | 0.996 |

Repeated from above (set 2):
| Substitution | relative binding score |
| --- | --- |
| N149F | -19.2% |
| R155V | 35.2% |
